Assay results pooled from the literature.
Each line is one published result; not all experiments were run side by side.
Target: Serine/threonine-protein kinase ULK3 (ULK3, Homo sapiens, UniProt Q6PHR2)
One construct used (Q6PHR2 1-472): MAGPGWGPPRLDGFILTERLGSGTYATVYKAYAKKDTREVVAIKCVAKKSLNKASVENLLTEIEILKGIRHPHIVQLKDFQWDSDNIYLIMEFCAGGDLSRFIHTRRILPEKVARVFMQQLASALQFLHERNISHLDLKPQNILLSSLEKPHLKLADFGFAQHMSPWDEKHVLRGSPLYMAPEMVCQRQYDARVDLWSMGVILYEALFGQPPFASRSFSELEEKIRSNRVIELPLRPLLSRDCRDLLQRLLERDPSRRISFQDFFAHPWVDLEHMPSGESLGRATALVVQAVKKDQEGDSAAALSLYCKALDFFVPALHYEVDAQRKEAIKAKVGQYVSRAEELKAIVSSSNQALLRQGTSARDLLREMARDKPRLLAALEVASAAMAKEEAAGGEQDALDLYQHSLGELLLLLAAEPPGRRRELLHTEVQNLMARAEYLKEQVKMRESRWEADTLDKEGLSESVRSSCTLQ

SMILES	assay	test system	setting	how to read	quantity	value
Cc1cc(Nc2cc(N3CCN(C)CC3)nc(Sc3ccc(NC(=O)C4CC4)cc3)n2)[nH]n1	kinase activity, KinaseProfiler	–	0.03 µM, species human	relative to: control	remaining activity	108%
C1=C/COCc2cc(ccc2OCCN2CCCC2)Nc2nccc(n2)-c2cccc(c2)COC/1	–	–	concentration not given	relative to: DMSO control	remaining binding	57%
CN1CC(Oc2cnc(C#N)cc2-c2ccn3nc(NC(=O)C4CC4)cc3c2)C1	inhibitor, KinaseProfiler panel	–	1 µM	–	inhibition	10%
COc1ccc(F)cc1C(=O)NCc1ccc(-c2nn([C@@H](C)C(F)(F)F)c(N)c2C(N)=O)cc1	probe binding, competitive chemoproteomics	human PBMCs	0.01 µM	–	inhibition	18.3%
CCN(CC)c1ccc(C2=NNC(=O)CC2C)cc1[N+](=O)[O-] (centres unmarked)	enzyme activity, inhibitor	–	10 µM	relative to: vehicle	remaining activity	101%
O=C(NC1CCC1)c1ccc2nc(-c3cccc(NS(=O)(=O)NCCN4CCCCC4)c3)cn2c1	enzyme activity	–	10 µM	–	remaining activity	76%
C=CC(=O)N1CCC(COCC(=O)N2CCN(c3nc(-c4cnc(N)nc4C(F)F)nc(N4CCOC[C@@H]4C)n3)CC2)CC1	KINOMEscan	–	1 µM	relative to: DMSO control	remaining binding	96%
C[C@@H](c1ccc(-n2cnc3c(N)ncnc32)cc1)N1CCc2nn(C)c(Cc3ccccc3)c2C1=O	KINOMEscan	–	0.1 µM	relative to: DMSO control	remaining binding	91%
CCCOc1ccc(OC)c(F)c1C(=O)c1ccc(C(=O)N[C@@H]2CNC[C@H]2NC(=O)c2ccc3[nH]ncc3c2)cc1	enzyme activity	–	10 µM	–	remaining activity	88%
C=CC(=O)N1CCC(C(=O)NCC(=O)N2CCN(c3nc(-c4cnc(N)nc4C(F)F)nc(N4CCOCC4)n3)CC2)CC1	KINOMEscan	–	1 µM	–	remaining binding	81%
COc1cc(F)ccc1-c1ncnc(Nc2cccc(C[S@](C)(=N)=O)c2)n1	kinase activity	–	10 µM, added: 10 µM ATP	–	remaining activity	91%

Some of these lines once more:
SMILES	assay	test system	setting	how to read	quantity	value
COc1cc(F)ccc1-c1ncnc(Nc2cccc(C[S@](C)(=N)=O)c2)n1	kinase activity	–	10 µM, added: 10 µM ATP	–	remaining activity	91%
CN1CC(Oc2cnc(C#N)cc2-c2ccn3nc(NC(=O)C4CC4)cc3c2)C1	inhibitor, KinaseProfiler panel	–	1 µM	–	inhibition	10%
